Experimental data of several laboratories.
Lines come from different studies, so protocols differ. Numbers after ± are the reported error.

For `C=CS(=O)(=O)NCCCCOCc1cn(CCCCNS(=O)(=O)C=C)nn1`, the viability was 87.8% (L929; cell growth or viability, resazurin; 50 µM, 72 h).
For `COc1ccc([C@@H]2CC(=O)c3c(O)cc(O[C@@H]4O[C@H](CO[C@@H]5O[C@@H](C)[C@H](O)[C@@H](O)[C@H]5O)[C@@H](O)[C@H](O)[C@H]4O)cc3O2)cc1O`, the viability was 67.7% (MRC5; cell growth or viability, MTS; 100 µg/mL, 72 h).
`CNc1ccc(-c2nc3ccc(O)c(CN4CCN(C)CCN(C)CC4)c3s2)cn1` gave a viability of ≤ 80% (N2a; 10 µM, 40 h, with: Aβ42 20 µM + CuCl2 20 µM; reference: DMSO control).
`Cc1ccc(C(C)C)cc1.Oc1ccccc1C=NNC1=Nc2ccccc2-c2[nH]c3ccc(Br)cc3c2C1.[Cl-].[Cl][Ru+]` gave a viability of 15% (SW480; annexin V/PI flow cytometry; 5 µM, 48 h).
The viability of `COc1ccc([C@@H]2CC(=O)c3c(O)cc(O[C@@H]4O[C@H](CO[C@@H]5O[C@@H](C)[C@H](O)[C@@H](O)[C@H]5O)[C@@H](O[C@H]5O[C@H](CO)[C@@H](O)[C@H](O)[C@H]5O)[C@H](O)[C@H]4O)cc3O2)cc1O` is reported as 72.1% (MRC5; cell growth or viability, MTS; 50 µg/mL, 72 h).
With `O=C1CCNCN1Cc1ccccc1` the viability was 98.3% (DH82; cell growth or viability, MTT; 200 µM, 24 h).
`C=CS(=O)(=O)NCCCCCCCCOCc1cn(CCCCCCCCNS(=O)(=O)C=C)nn1` has a viability of 1.2% (L929; cell growth or viability, resazurin; 50 µM, 72 h).
`CC(C)=CCc1c2c(c(O)c3c(=O)c(-c4ccc(O)cc4)coc13)CC(C(C)(C)O)O2` (centres unmarked) gave a viability of 143% (SW480; cell growth or viability, MTT; 6.25 µg/mL).
For `C=CS(=O)(=O)NCCCCCCCCOCc1cn(CCCCCCCCNS(=O)(=O)C=C)n[n+]1C`, the viability was 37% (L929; cell growth or viability, resazurin; 50 µM, 72 h).
With `CC(C)=CCc1cc(-c2coc3cc(O)c(CC=C(C)C)c(O)c3c2=O)ccc1O` the viability was 6.42% (SW480; cell growth or viability, MTT; 100 µg/mL).
`CC12CCCC(n3cc(C(=O)N4CCCC(N)C4)nn3)(C1)C1CC(C)(C)C1CC2` (centres unmarked) has a viability of 72.6% (HT-29; 0.5 µM, 72 h, without NAC pretreatment).
With `Cc1ccccc1C(c1c[nH]c(=O)[nH]c1=O)c1c[nH]c(=O)[nH]c1=O` the viability was > 90% (Mo7e; cell growth or viability, WST-1; 1 µg/mL, 24 h).
`N#Cc1c(NC(=O)CN2CCOCC2)sc2c1CCC(c1ccccc1)C2` (centres unmarked) gave a viability of 79.5% (LoVo; cell growth or viability, LDH; 100 µg/mL, 24 h).
With `COc1cc2c(cc1O)[C@]1(O)C(=O)c3c(O)cc4c(c3O[C@@H]1CO2)C=CC(C)(C)O4` the viability was 159% (SW480; cell growth or viability, MTT; 12.5 µg/mL).
`O=c1[nH]cc(C(c2ccccc2Br)c2c[nH]c(=O)[nH]c2=O)c(=O)[nH]1` gave a viability of > 90% (Mo7e; cell growth or viability, WST-1; 1 µg/mL, 24 h).
For `COc1ccc(-c2coc3c(CC=C(C)C)c(O)c(CC=C(C)C)c(O)c3c2=O)cc1O`, the viability was 12.6% (SW480; cell growth or viability, MTT; 50 µg/mL).
`C=CC(=O)Nc1cccc2c1cc(C)n2-c1nc2c(c(NCc3ccccc3)n1)CCCC2` gave a viability of 95 ± 2% (Huh-7 cells, uninfected; 0.1 µM, 5 days).

A few entries again:
With `CC(C)=CCc1cc(-c2coc3cc(O)c(CC=C(C)C)c(O)c3c2=O)ccc1O` the viability was 6.42% (SW480; cell growth or viability, MTT; 100 µg/mL).
`CC12CCCC(n3cc(C(=O)N4CCCC(N)C4)nn3)(C1)C1CC(C)(C)C1CC2` (centres unmarked) has a viability of 72.6% (HT-29; 0.5 µM, 72 h, without NAC pretreatment).
